Measured values pooled from the literature.
Each line is one published result; not all experiments were run side by side. ± gives the spread as reported.
ST6GAL1: Beta-galactoside alpha-2,6-sialyltransferase 1 (ST6GAL1, Homo sapiens, UniProt P15907)
Sequence of UniProt P15907 (whole entry, looked up): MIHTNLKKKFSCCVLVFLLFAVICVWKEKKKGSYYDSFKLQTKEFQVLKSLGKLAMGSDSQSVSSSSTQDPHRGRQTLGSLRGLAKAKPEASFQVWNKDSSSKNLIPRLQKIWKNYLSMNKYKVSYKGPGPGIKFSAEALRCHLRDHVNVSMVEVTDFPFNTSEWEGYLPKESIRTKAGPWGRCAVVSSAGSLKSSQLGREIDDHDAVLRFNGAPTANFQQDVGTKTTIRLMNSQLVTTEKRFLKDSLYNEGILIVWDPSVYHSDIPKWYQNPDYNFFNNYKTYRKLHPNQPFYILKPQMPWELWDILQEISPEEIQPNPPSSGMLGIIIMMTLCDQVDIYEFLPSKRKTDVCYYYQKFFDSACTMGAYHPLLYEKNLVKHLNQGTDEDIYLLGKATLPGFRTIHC
AKR1C3: Aldo-keto reductase family 1 member C3 (AKR1C3, Homo sapiens, UniProt P42330)
Sequence of UniProt P42330 (whole entry, looked up): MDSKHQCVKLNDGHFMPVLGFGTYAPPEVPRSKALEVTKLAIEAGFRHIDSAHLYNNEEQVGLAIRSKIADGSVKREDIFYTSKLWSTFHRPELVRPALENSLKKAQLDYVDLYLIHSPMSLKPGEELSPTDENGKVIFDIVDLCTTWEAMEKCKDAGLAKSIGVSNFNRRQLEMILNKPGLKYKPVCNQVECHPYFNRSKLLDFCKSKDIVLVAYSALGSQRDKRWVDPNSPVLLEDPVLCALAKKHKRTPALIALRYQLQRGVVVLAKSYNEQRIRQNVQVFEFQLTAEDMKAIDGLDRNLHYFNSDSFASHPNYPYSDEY
MAL12: Alpha-glucosidase MAL12 (MAL12, Saccharomyces cerevisiae S288c, UniProt P53341)
Sequence of UniProt P53341 (whole entry, looked up): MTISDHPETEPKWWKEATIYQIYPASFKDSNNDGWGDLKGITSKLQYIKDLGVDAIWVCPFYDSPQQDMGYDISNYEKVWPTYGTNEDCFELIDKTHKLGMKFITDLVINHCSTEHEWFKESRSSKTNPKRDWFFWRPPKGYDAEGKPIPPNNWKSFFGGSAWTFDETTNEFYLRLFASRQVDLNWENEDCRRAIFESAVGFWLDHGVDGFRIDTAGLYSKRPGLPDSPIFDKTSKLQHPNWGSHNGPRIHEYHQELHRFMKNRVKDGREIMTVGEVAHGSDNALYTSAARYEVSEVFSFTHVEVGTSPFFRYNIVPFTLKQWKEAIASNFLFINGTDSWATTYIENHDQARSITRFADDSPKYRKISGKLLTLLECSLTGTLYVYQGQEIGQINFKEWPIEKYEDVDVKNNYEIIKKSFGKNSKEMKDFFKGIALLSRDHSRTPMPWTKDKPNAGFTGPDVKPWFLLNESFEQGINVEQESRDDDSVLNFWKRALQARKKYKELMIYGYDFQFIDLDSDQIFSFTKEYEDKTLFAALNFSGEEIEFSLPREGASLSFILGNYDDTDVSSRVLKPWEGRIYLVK
SIRT6: NAD-dependent protein deacylase sirtuin-6 (SIRT6, Homo sapiens, UniProt Q8N6T7)
Sequence of UniProt Q8N6T7 (whole entry, looked up): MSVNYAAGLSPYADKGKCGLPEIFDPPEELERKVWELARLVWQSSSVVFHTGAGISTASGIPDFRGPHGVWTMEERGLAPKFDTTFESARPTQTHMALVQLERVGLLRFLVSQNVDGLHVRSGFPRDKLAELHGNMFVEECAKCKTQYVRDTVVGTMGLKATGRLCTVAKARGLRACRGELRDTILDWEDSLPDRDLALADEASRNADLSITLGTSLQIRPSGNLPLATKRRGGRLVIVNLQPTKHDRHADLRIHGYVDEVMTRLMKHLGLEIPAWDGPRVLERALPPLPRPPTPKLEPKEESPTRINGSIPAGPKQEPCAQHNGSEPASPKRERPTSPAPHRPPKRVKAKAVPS
CDK2 with cyclin A2: Cyclin-dependent kinase 2, with cyclin A2 (CDK2, Homo sapiens, UniProt P24941)
DNMT3A catalytic domain: DNA (cytosine-5)-methyltransferase 3A, catalytic domain (DNMT3A, Homo sapiens, UniProt Q9Y6K1)
Ectonucleoside triphosphate diphosphohydrolase 2: Ectonucleoside triphosphate diphosphohydrolase 2 (Homo sapiens, UniProt Q9Y5L3)
Sequence of UniProt Q9Y5L3 (whole entry, looked up): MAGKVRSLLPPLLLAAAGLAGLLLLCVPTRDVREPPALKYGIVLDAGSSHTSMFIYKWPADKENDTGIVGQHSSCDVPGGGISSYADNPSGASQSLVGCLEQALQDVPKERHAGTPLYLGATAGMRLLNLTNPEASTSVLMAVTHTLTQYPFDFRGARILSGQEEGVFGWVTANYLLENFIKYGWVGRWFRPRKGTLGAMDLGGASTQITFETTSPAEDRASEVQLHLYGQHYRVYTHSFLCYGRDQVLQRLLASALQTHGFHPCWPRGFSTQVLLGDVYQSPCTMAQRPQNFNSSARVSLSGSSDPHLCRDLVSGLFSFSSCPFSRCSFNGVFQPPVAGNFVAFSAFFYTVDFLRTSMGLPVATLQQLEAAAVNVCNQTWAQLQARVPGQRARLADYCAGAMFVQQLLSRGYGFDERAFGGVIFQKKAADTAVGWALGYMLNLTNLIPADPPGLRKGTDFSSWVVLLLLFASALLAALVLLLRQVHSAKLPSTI
CTSL: Procathepsin L (CTSL, Homo sapiens, UniProt P07711)
Sequence of UniProt P07711 (whole entry, looked up): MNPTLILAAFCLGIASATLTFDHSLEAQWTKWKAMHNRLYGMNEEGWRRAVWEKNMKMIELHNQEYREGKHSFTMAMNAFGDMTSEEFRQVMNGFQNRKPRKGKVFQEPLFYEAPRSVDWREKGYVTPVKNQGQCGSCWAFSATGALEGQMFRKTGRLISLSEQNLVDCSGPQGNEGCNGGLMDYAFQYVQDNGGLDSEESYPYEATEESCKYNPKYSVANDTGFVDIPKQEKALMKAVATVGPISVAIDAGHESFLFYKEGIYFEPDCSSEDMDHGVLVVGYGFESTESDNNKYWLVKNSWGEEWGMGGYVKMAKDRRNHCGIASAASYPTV
Sequence of UniProt P35520 (whole entry, looked up): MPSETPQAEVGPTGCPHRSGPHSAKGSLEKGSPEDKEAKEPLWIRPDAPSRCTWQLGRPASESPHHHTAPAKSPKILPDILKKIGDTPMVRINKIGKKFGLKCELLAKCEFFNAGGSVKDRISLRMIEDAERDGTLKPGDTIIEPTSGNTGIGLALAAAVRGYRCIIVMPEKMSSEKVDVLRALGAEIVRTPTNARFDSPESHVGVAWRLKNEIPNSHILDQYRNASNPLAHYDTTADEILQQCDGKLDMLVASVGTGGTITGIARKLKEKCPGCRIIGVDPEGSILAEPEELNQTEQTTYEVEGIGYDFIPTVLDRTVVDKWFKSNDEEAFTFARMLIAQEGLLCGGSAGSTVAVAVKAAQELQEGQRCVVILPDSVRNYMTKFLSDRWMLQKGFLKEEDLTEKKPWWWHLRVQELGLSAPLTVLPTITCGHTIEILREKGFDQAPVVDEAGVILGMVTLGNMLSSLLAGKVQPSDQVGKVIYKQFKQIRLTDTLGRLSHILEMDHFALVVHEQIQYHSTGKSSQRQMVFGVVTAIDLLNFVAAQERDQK
Sequence of UniProt P14679 (whole entry, looked up): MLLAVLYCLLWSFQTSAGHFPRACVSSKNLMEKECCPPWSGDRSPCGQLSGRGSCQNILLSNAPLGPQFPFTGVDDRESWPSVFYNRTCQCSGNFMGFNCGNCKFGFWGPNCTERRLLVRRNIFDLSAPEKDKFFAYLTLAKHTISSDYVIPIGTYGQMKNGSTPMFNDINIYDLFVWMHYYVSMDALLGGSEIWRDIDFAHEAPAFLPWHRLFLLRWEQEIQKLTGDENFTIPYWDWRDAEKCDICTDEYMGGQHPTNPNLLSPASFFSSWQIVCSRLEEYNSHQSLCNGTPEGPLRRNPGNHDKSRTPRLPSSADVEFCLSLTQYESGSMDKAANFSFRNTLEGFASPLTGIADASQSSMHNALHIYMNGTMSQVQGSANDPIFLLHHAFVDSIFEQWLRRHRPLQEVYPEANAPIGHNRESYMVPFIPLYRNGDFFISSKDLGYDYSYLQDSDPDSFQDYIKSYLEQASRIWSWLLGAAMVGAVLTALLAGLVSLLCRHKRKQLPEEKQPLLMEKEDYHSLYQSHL
Sequence of UniProt Q96RI1 (whole entry, looked up): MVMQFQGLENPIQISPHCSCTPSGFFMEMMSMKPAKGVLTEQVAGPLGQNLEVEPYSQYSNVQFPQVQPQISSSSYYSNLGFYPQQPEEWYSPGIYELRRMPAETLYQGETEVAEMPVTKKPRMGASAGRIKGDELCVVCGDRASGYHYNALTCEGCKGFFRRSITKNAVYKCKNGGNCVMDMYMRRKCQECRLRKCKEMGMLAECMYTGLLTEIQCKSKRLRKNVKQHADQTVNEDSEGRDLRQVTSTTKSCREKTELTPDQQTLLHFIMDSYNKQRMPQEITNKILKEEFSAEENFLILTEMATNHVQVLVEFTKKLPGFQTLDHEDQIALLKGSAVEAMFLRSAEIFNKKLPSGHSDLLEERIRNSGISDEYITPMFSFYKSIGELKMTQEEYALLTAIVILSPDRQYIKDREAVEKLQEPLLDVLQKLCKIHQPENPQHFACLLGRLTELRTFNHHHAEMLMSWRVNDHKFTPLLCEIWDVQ

For `Oc1c(C(Nc2nccs2)c2ccccc2OCc2ccccc2)ccc2cccnc12` (centres unmarked), the inhibition was 66.8% (Genome polyprotein, protease (Dengue virus type 2, UniProt P14340); enzyme activity, inhibitor, fluorescence; 10 µM).
`COc1ccc(-c2cc(C(F)(F)F)nc(S(=O)(=O)NCC(=O)Nc3ccc(C)cc3)c2)cc1`: inhibition “inactive” (Bifunctional 3'-5' exonuclease/ATP-dependent helicase WRN (WRN, Homo sapiens, UniProt Q14191); ATPase activity, ADP-Glo; concentration not given).
`C[C@H](CCC(=O)N[C@H](CC(c1c[nH]c2ccc([N+](=O)[O-])cc12)c1c[nH]c2ccc([N+](=O)[O-])cc12)C(=O)O)[C@H]1CC[C@H]2[C@@H]3CC[C@@H]4C[C@H](O)CC[C@]4(C)[C@H]3CC[C@]12C` gave an inhibition of 100% (ST6GAL1; enzyme activity, inhibitor, UPLC; 25 µM).
For `C=C1C(=O)C23CCC4C(C)(C)CCCC4(C)C2C(O)CC1C3` (single isomer, unassigned), inhibition read “inhibited” (Peroxiredoxin-1 (PRDX1, Homo sapiens, UniProt Q06830); peroxidase activity, inhibitor, Amplex Red; concentration not given).
`C[C@@]12CC[C@@H]3c4ccc(O)c(I)c4CC[C@H]3[C@@H]1CCC2=O` has an inhibition of 85.7% (AKR1C3; enzyme activity, inhibitor, absorbance; 100 µM, pH 9).
The inhibition of `COc1ccc(NC(=S)Nc2cccc3[nH]ccc23)cc1` is reported as 70% (Microtubule-associated protein tau, 2N3R isoform (MAPT, Homo sapiens, UniProt P10636); tau fibril formation, ThT fluorescence; 100 µM, tau at 10 µM).
The inhibition of `C[C@H](CCC(=O)N[C@H](CC(c1c[nH]c2ccccc12)c1c[nH]c2ccccc12)C(=O)O)[C@H]1CC[C@H]2[C@@H]3CC[C@@H]4C[C@H](O)CC[C@]4(C)[C@H]3CC[C@]12C` is reported as 100% (ST6GAL1; enzyme activity, inhibitor, UPLC; 25 µM).
The inhibition of `C[C@@]12CC[C@@H]3c4cc(I)c(O)cc4CC[C@H]3[C@@H]1CCC2=O` is reported as 33.8% (AKR1C3; enzyme activity, inhibitor, absorbance; 10 µM, pH 9).
`C=CC(C)(C)c1[nH]c2ccccc2c1C1=C(O)C(=O)C(c2c[nH]c3c(CC=C(C)C)cccc23)=C(O)C1=O` gave an inhibition of 69.3 ± 3.5% (Trypanothione synthetase (Leishmania infantum, UniProt A4I2Z3); trypanothione synthetase activity; 25 µM).
`O=[N+]([O-])c1cccc(S(=O)(=O)NC[C@@H](O)[C@@H]2CCc3cc(F)ccc3O2)c1` has an inhibition of 67.6% (Prostaglandin G/H synthase 2 (PTGS2, Ovis aries, UniProt P79208); enzyme activity, inhibitor, absorbance; 200 µM).
For `CC(=O)Nc1cc(COc2c(Cl)cc(CC(N)C(=O)O)cc2Cl)c2oc(-c3ccccc3)nc2c1` (centres unmarked), inhibition read “no inhibition” (Neutral amino acid transporter B(0) (SLC1A5, Homo sapiens, UniProt Q15758); L-alanine uptake; Xenopus oocytes; 1 and 10 µM, 30 min, with: L-[14C]alanine 50 µM).
For `COc1cc(-c2oc3cc(O)cc(O)c3c(=O)c2OC)ccc1O`, the inhibition was 96.8% (MAL12; enzyme activity, inhibitor, absorbance; 100 µM).
`NC(=O)c1cn(CC(=O)NC[C@H](NC(=O)CCc2nc(-c3cccnc3)no2)c2ccccc2)c(=O)[nH]c1=O` gave an inhibition of 3% (SIRT6; demyristoylation; 10 µM).
With `O=C(CCCCCCN1CCN(c2ccc(Nc3ncc(F)c(-c4cn(C5CCCC5)nn4)n3)cc2)CC1)NO` the inhibition was 41.6% (CDK2 with cyclin A2; enzyme activity, inhibitor, TR-FRET; 5 µM).
Under inhibition, `CC[C@H](C)[C@H](NC(=O)[C@@H](NC(=O)[C@H](CCCCN)NC(=O)[C@@H](NC(=O)[C@@H]1CCCN1[C@@H]1CN(C(=O)[C@@H](NC(=O)[C@@H](NC(=O)[C@@H](NC(=O)[C@@H](NC(=O)[C@@H](NC(=O)[C@@H](N)CCCCN)C(C)C)C(C)C)C(C)C)[C@@H](C)CC)[C@@H](C)O)CC[C@H]1NS(=O)(=O)c1ccc(C)cc1)[C@@H](C)O)C(C)C)C(=O)N[C@@H](CC(C)C)C(=O)N[C@@H](Cc1c[nH]cn1)C(N)=O` is recorded as “inhibited” (Microtubule-associated protein tau, 2N4R isoform (MAPT, Homo sapiens, UniProt P10636, del597-597); tau ΔK280 aggregation, thioflavin T fluorescence; concentration not given, compound to tau ratios 5/1 and 1/1).
`CC(C)CCC[C@@H](C)[C@H]1CCC([C@@H]2CC[C@H]3C[C@@H](O)CC[C@]3(C)[C@@H]2O)[C@]1(C)CC(=O)O` (some centres unmarked) gave an inhibition of 89.5% (Bile acid receptor (NR1H4, Homo sapiens, UniProt Q96RI1); reporter gene, antagonist, luciferase; HEK-293T; 10 µM).
`Oc1c(C(Nc2nccs2)c2cccc(OCc3ccccc3)c2)ccc2cccnc12` (centres unmarked) gave an inhibition of 92.9 ± 1.26% (Genome polyprotein, NS2B-NS3 protease (Dengue virus type 2, UniProt P14340); enzyme activity, inhibitor, fluorogenic; 25 µM, 0.1% CHAPS, with: Bz-Nle-Lys-Arg-Arg-AMC substrate).
For `CC(C)Cn1cc(-c2ccnc(Nc3ccc(N4CCN(CCCCCCC(=O)NO)CC4)cc3)n2)nn1`, the inhibition was -11.4% (CDK2 with cyclin A2; enzyme activity, inhibitor, TR-FRET; 50 nM).
`Cc1cc(Nc2ccc(NC(=O)c3ccc(NC(=O)c4cccnc4)cc3)cc2)nc(N)n1` gave an inhibition of 0% (DNMT3A catalytic domain; enzyme activity, inhibitor, restriction-based fluorescence; 20 µM).
For `Clc1ccc(NN=C(c2ccccc2)c2ccccn2)nc1`, inhibition read “no inhibition” (Methylcytosine dioxygenase TET1 (TET1, Homo sapiens, UniProt Q8NFU7); enzyme activity, inhibitor, biochemical; concentration not given).
`Cc1cccc(/C=C/C(=O)c2cnn(-c3ccccc3)c2C)c1` has an inhibition of 37.1% (MAL12; enzyme activity, inhibitor; 350 µM).
`C[C@]12CCC[C@H]1[C@@H]1CCc3c(cc(I)c(O)c3I)[C@H]1CC2` has an inhibition of 11.4% (AKR1C3; enzyme activity, inhibitor, absorbance; 10 µM, pH 9).
For `NC(=O)c1ccc(C(=O)NOCc2ccc(Sc3cccc(Cl)c3)c(C(F)(F)F)c2)cc1`, the inhibition was 98.3% (SIRT6; enzyme activity, inhibitor, fluorescence; 100 µM).
The inhibition of `O=C(Nc1ccc(Cl)cc1)c1cccc(S(=O)(=O)NC2CC2)c1` is reported as 36% (Ectonucleoside triphosphate diphosphohydrolase 2; enzyme activity, inhibitor, absorbance; 100 µM).
For `NOCC(=O)O`, the inhibition was 80% (Cystathionine beta-synthase (CBS, Homo sapiens, UniProt P35520); enzyme activity, inhibitor, fluorescence; 10 µM).
For `COc1ccccc1-c1ccncc1C(=O)Nc1nnc(OCc2ccc(Cl)cc2)s1`, inhibition read “no inhibition” (Bifunctional 3'-5' exonuclease/ATP-dependent helicase WRN, residues 500-946 (WRN, Homo sapiens, UniProt Q14191); ATPase activity, inhibitor, ADP-Glo; up to 30 µM).
`Cc1ccc(C(C)C)cc1NC(=O)COC(=O)/C=C/c1ccc(O)cc1O` has an inhibition of 91.9% (Tyrosinase (TYR, Homo sapiens, UniProt P14679); enzyme activity, inhibitor; 50 µg/mL).
With `C[C@@]12CC[C@@H]3c4cc(Br)c(O)c(Br)c4CC[C@H]3[C@@H]1CCC2=O` the inhibition was 50.8% (AKR1C3; enzyme activity, inhibitor, absorbance; 100 µM, pH 9).
`CC(C)C[C@H](NC(=O)[C@H](CCC(N)=O)NC(=O)[C@H](CCCCN)NC(=O)[C@H](CCCNC(=N)N)NC(=O)[C@@H]1CCCN1C(=O)[C@H](C)NC(=O)[C@@H](N)CCCCN)C(=O)N[C@@H](C)C(=O)N[C@H](C(=O)N[C@@H](CCCCN)C(=O)N[C@@H](C)C(=O)N[C@@H](C)C(=O)N[C@@H](CCCNC(=N)N)C(=O)N[C@@H](CCCCN)C(=O)N[C@@H](CO)C(=O)N[C@@H](C)C(=O)N1CCC[C@H]1C(=O)N[C@@H](C)C(=O)O)[C@@H](C)O` gave an inhibition of 68 ± 2% (CTSL; enzyme activity, inhibitor; 25 µM, pH 7.4, 25 °C, 3% DMSO, with: Z-LR-Mca at 0.16 x Km).
With `NCc1ccc(NC(=O)c2ccc3ccccc3c2O)cc1` the inhibition was less than 20% (CTSL; enzyme activity, inhibitor; 10 µM).
`Cc1cc(Nc2ccc(NC(=O)c3ccc(NC(=O)c4ccncc4)cc3)cc2)nc(N)n1` has an inhibition of 5% (DNMT3A catalytic domain; enzyme activity, inhibitor; 10 µM).
For `C[C@H](CCC(=O)N[C@H](CC(c1c[nH]c2ccc(F)cc12)c1c[nH]c2ccc(F)cc12)C(=O)O)[C@H]1CC[C@H]2[C@@H]3CC[C@@H]4C[C@H](O)CC[C@]4(C)[C@H]3CC[C@]12C`, the inhibition was 86% (ST6GAL1; enzyme activity, inhibitor, UPLC; 25 µM).
With `NC(=O)c1cn(CC(=O)NC[C@H](NC(=O)CCc2nc(-c3cccnc3)no2)C(=O)N2CCCCC2)c(=O)[nH]c1=O` the inhibition was 28% (SIRT6; demyristoylation; 10 µM).
`C[C@H](CCC(=O)N[C@H](CC(c1c[nH]c2ccc(N=[N+]=[N-])cc12)c1c[nH]c2ccc(N=[N+]=[N-])cc12)C(=O)O)[C@H]1CC[C@H]2[C@@H]3CC[C@@H]4C[C@H](O)CC[C@]4(C)[C@H]3CC[C@]12C` (some centres unmarked) has an inhibition of 5% (Sialyltransferase ST3Gal-I (Rattus norvegicus, UniProt Q6H8N0); enzyme activity, inhibitor, UPLC; 500 µM).
With `C[C@@]12CC[C@@H]3c4ccc(O)cc4CC[C@H]3[C@@H]1CCC2=O` the inhibition was 22.5% (AKR1C3; enzyme activity, inhibitor, absorbance; 10 µM, pH 9).
With `C=CC(=O)Nc1cccc(-c2cnc3[nH]cc(C(=O)NC(C)(C)C)c3n2)c1` the inhibition was greater than 90% (Tyrosine-protein kinase JAK3 (JAK3, Homo sapiens, UniProt P52333); enzyme activity, inhibitor; 0.1 µM).
`C[C@]12CC[C@@H]3c4ccc(O)c(Br)c4CC[C@H]3[C@@H]1CCC2=O` gave an inhibition of 25% (AKR1C3; enzyme activity, inhibitor, absorbance; 10 µM, pH 9).
With `CC(C)Cn1cc(-c2ccnc(Nc3ccc(C(=O)Nc4ccccc4N)cc3)n2)nn1` the inhibition was 32.7% (CDK2 with cyclin A2; enzyme activity, inhibitor, TR-FRET; 5 µM).
The inhibition of `C[C@]12CCC[C@H]1[C@@H]1CCc3cc(O)ccc3[C@H]1CC2` is reported as 23.4% (AKR1C3; enzyme activity, inhibitor, absorbance; 10 µM, pH 9).
With `O=C(O)c1cccc(S(=O)(=O)NC2CC2)c1` the inhibition was 10% (Ectonucleoside triphosphate diphosphohydrolase 2; enzyme activity, inhibitor, absorbance; 100 µM).
With `S=C(Nc1ccc(Cl)cc1)Nc1cccc2[nH]ccc12` the inhibition was 67% (Microtubule-associated protein tau (MAPT, Homo sapiens, UniProt P10636); fibril formation, ThT fluorescence; 100 µM, with: tau 10 µM).
The inhibition of `COc1ccc2c(c1)CC[C@@H]1[C@@H]2CC[C@@]2(C)C(=O)CC[C@@H]12` is reported as 22.9% (AKR1C3; enzyme activity, inhibitor, absorbance; 10 µM, pH 9).
`COc1cc(C(=O)NC2CCC(N3CCN(CC4CCC5(CCCC5)C4)CC3)CC2)c(F)cc1Nc1ncc2c(n1)N(C1CCCC1(F)F)CC(F)(F)C(=O)N2C` (centres unmarked) has an inhibition of 0.14% (Vascular endothelial growth factor receptor 2 (KDR, Homo sapiens, UniProt P35968); cell-free assay, TR-FRET; 10 µM).
`Cc1ccc(C(C)C)cc1.Oc1ccccc1C=NNC1=Nc2ccccc2-c2[nH]c3ccc(Br)cc3c2C1.[Cl-].[Cl][Ru+]` has an inhibition of 43% (Cyclin-dependent kinase 2, with cyclin E (CDK2, Homo sapiens, UniProt P24941); enzyme activity, inhibitor, radiometric; 10 µM).

Some of these lines once more:
The inhibition of `COc1ccc2c(c1)CC[C@@H]1[C@@H]2CC[C@@]2(C)C(=O)CC[C@@H]12` is reported as 22.9% (AKR1C3; enzyme activity, inhibitor, absorbance; 10 µM, pH 9).
For `Clc1ccc(NN=C(c2ccccc2)c2ccccn2)nc1`, inhibition read “no inhibition” (Methylcytosine dioxygenase TET1 (TET1, Homo sapiens, UniProt Q8NFU7); enzyme activity, inhibitor, biochemical; concentration not given).
For `NC(=O)c1ccc(C(=O)NOCc2ccc(Sc3cccc(Cl)c3)c(C(F)(F)F)c2)cc1`, the inhibition was 98.3% (SIRT6; enzyme activity, inhibitor, fluorescence; 100 µM).
